Measurements of several laboratories.
Compare with care: the assays were run in different laboratories. Numbers after ± are the reported error.
Organism: Plasmodium falciparum

| Structure (SMILES) | assay | test system | setting | IC50 [nM] |
| --- | --- | --- | --- | --- |
| COc1cc(O)c(-c2cc(-c3cc(-c4c(O)cc5c(c4OC)[C@H](C)N[C@H](C)C5)c4cc(C)cc(OC)c4c3O)c(O)c3c(OC)cc(C)cc23)c2c1[C@H](C)N[C@H](C)C2 | asexual parasite growth, SYBR Green I | clinical isolate SB_04, Malawi | – | 69.1 ± 2 |
| Cc1cc(C(c2ccc(Cl)cc2)c2ccc(Cl)cc2)c2nccc(C)c2c1 | parasite growth, inhibitor, SYBR Green I | 3D7 | – | 4010 |
| O=C1C(NCCc2cc(Br)c(O)c(Br)c2)=CC2=NCCc3c[nH]c1c32 | parasite growth, SYBR Green | DD2 | blood stage | 1440 |
| COCCN(C)CC(=O)NC(Cc1ccc(-c2ccccc2)cc1)B(O)O (stereo not shown) | [3H]-hypoxanthine incorporation | Dd2, chloroquine-resistant | – | 126 ± 45 |
| O=C(OCc1cn(-c2cc3ccc(O)cc3oc2=O)nn1)c1ccccc1 | parasite growth | 3D7 | 72 h, blood stage | > 10000 |
| COCCN(C)C(C)C(=O)NC(Cc1ccc(-c2ccccc2)cc1)B(O)O (stereo not shown) | parasite growth | Dd2-B2 wild type | 72 h | 454 ± 109 |
| COc1cncc(-c2cc(F)cc(CNC(=O)c3cc(N4CC[C@@](C#N)(C5CC5)C4=O)cc(C)n3)c2)c1 | parasite growth | conditional knockdown control line | 72 h, together with: 3 nM anhydrotetracycline | 252 |
| O=C(CCCCCONC(=O)c1nc(-c2ccc(Br)cc2)cs1)NO | asexual blood-stage growth, [3H]hypoxanthine uptake | 3D7 | 72 h | 130 |
| O=C1C(NCCc2ccc(O)cc2)=CC2=NCCc3c(Br)[nH]c1c32 | parasite growth, SYBR Green | W2 | blood stage | 6360 |
| CCNCC#CCNc1ccnc2cc(Cl)ccc12 | parasite growth, LDH | 3D7 | – | 24 |
| O=C1C(=O)c2[nH]cc3c2C(=C1I)NCC3 | parasite growth, SYBR Green | W2 | blood stage | 15700 |
| Cc1cc(N2CC[C@@](C#N)(C3CC3)C2=O)cc(NC(=O)Cc2ccccc2)n1 | parasite growth | conditional knockdown control line | 120 h, together with: 3 nM anhydrotetracycline | 51 |
| CC1=N[C@H](C)Cc2c(-c3ccc4ccccc4c3)ccc(O)c21 | asexual parasite proliferation, SYBR Green I fluorescence | clinical isolate SB_05, Mozambique | – | 789 ± 9.2 |
| O=C(CCCCCONC(=O)c1nc(-c2ccc(O)cc2)cs1)NO | gametocyte viability, MitoTracker flow cytometry | stage IV-V gametocytes | 72 h | > 2000 |
| CC(F)(F)CCCNC[C@@H](O)c1cc(Cl)cc2c1-c1ccc(Cl)cc1C2 | – | 3D7 | 48 h | < 5 |
| COc1cc(C)c(-c2ccc(O)c3c2C[C@@H](C)N[C@@H]3C)c2cccc(O)c12 (single isomer, unassigned) | asexual parasite proliferation, SYBR Green I fluorescence | HB3 | – | 139 ± 8.8 |
| COc1ccc2c(c1)C1CC(C)(N2)c2c(C)nc3ccc(OC)cc3c21 (stereo not shown) | parasite growth, SYBR Green | – | blood stage | 2420 |

| Structure (SMILES) | assay | test system | setting | IC50 [nM] |
| --- | --- | --- | --- | --- |
| CC1C=CC=CC(C)C2C=CC3CC(C)(O)C(O)C(C)C3C2C(=O)C(Cl)(Cl)C(=O)C(C)C(=O)O1 (stereo not shown) | parasite growth, ELISA | 3D7 | blood stage | > 2170 |
| Cc1cc(N2CCC(CO)(C3CC3)C2=O)cc(C(=O)NCc2cc(F)cc(-c3cnn(C)c3)c2)n1 (stereo not shown) | parasite growth | conditional knockdown control line | 72 h, together with: 3 nM anhydrotetracycline | 242 |
| CCOC(=O)c1ccc2c(c1)C1CC(C)(N2)c2c(C)nc3ccc(C(=O)OCC)cc3c21 (stereo not shown) | parasite growth, inhibitor, SYBR Green I | 3D7 | – | 758 |
| Cc1ccc(S(=O)(=O)n2cc3c4c2C(=O)C(NCCc2ccc(O)cc2)=CC4=NCC3)cc1 | parasite growth, SYBR Green | W2 | blood stage | 1410 |
| COc1cc(C)c(-c2ccc3c(c2O)[C@@H](C)N[C@H](C)C3)c2ccc(-c3c(C)c(-c4ccc5c(c4O)[C@@H](C)N[C@H](C)C5)c4cccc(OC)c4c3O)c(O)c12 | asexual parasite proliferation, SYBR Green I fluorescence | K1 | – | 125 ± 19 |
| Cc1ccc(S(=O)(=O)n2cc3c4c2C(=O)C(N)=CC4=NCC3)cc1 | parasite growth, SYBR Green | W2 | blood stage | 3410 |
| COc1cccc2c(-c3ccc(O)c4c3CC(C)(C)N=C4)ccc(OC(C)C)c12 | asexual parasite proliferation, SYBR Green I fluorescence | 7G8 | – | 127 ± 18 |
| CCC1(CC)CC(=O)N(C2CCOc3ccc(C(=O)NC4CC(C)(C)Oc5ccccc54)cc32)C(=N)N1 (stereo not shown) | merozoite egress | PEXEL-Nluc line | – | ~0.3 |
| CCN(CC)CCCC(C)Nc1ccnc2cc(Cl)ccc12 (stereo not shown) | parasite growth, SYBR Green | 3D7 | 72 h, blood stage | 20.1 |
| O=C1C(NCCc2ccc(O)c(Br)c2)=CC2=NCCc3c[nH]c1c32 | parasite growth, SYBR Green | W2 | blood stage | 1140 |
| COc1cccc2c(-c3ccc(O)c4c3C[C@@H](C)N[C@@H]4C)c(C)cc(O)c12 | asexual parasite proliferation, SYBR Green I fluorescence | K1 | – | 56 ± 13 |
| N#Cc1ccc(-c2csc(C(=O)NOCCCCCC(=O)NO)n2)cc1 | asexual blood-stage growth, [3H]hypoxanthine uptake | 3D7 | 72 h | 250 |
| COc1cc(O)c(-c2cc(-c3cc(-c4c(O)cc(OC)c5c4C[C@@H](C)N[C@@H]5C)c4cc(C)cc(OC)c4c3O)c(O)c3c(OC)cc(C)cc23)c2c1[C@@H](C)N[C@H](C)C2 | parasite growth, SYBR Green | NF54 | blood stage | 87.8 |
| O=C1C(=O)c2[nH]cc3c2C(=C1Cl)NCC3 | parasite growth, SYBR Green | W2 | blood stage | 7230 |
| CC1=C(Cn2cc(CN3CCC(F)(F)CC3)nn2)C(=O)c2ccccc2C1=O | parasite growth, [3H]hypoxanthine incorporation | NF54 | 72 h | 2840 |
| COc1c(Br)cc(CCNC2=CC3=NCCc4c[nH]c(c43)C2=O)cc1Br | parasite growth, SYBR Green | DD2 | blood stage | 34.4 |
| COc1cccc2c(-c3ccc(O)c4c3CCNC4)ccc(O)c12 | asexual parasite proliferation, SYBR Green I fluorescence | K1 | – | 359 ± 81 |

A few entries again:
| Structure (SMILES) | assay | test system | setting | IC50 [nM] |
| --- | --- | --- | --- | --- |
| COc1ccc2c(c1)C1CC(C)(N2)c2c(C)nc3ccc(OC)cc3c21 (stereo not shown) | parasite growth, SYBR Green | – | blood stage | 2420 |
| Cc1cc(C(c2ccc(Cl)cc2)c2ccc(Cl)cc2)c2nccc(C)c2c1 | parasite growth, inhibitor, SYBR Green I | 3D7 | – | 4010 |
